{"data": "Experimental data gathered from unrelated publications", "note": "Each numbered part is a random draw from the data of one study; scales do not carry over between parts."}
{"data": "Study 1", "target": "RNA binding protein fox-1 homolog 2, RRM domain, GST-SBP tag (RBFOX2, Homo sapiens, UniProt O43251-10, residues 100-194)", "technique": "RNA Bind-n-Seq", "molecule type": "RNA", "matrix": "in vitro", "tested at": "365 nM", "notes": "natural RNA segment, single round, ends assumed", "baseline": "no-protein control", "direction": "higher = stronger binding", "shared flanks, not repeated": "GGGAGUUCUACAGUCCGACGAUC … UGGAAUUCUCGGGUGCCAA", "Target sequence (chain)": "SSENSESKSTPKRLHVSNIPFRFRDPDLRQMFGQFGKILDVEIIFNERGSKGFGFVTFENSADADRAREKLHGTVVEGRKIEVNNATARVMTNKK"}
{"Oligonucleotide": "GCAUGGAAUUUUACCCAUGAUUUCCUUACCACUAGGAUCUACAUUGAUAAAAAAAAUUGAUUAAAUUUAUUUCAUCUCAUAUAUAGAAGUACUUUAUUACCUGGAAACAU", "RBNS enrichment (R)": 3.03}
{"Oligonucleotide": "UGUUCCUCCAUACUACUGAAGCCCACCCACAUCCAAGAUCCCUUAUGUAAAAACUGUCUGCAAGGACCGUCUGGCUUCAUUUCCCUGAGCACUCCCUACAUGGUAGGUUG", "RBNS enrichment (R)": 0.434}
{"Oligonucleotide": "AGGGUCUGCAGGUUCCAUGGGUGACAGCCUGAGAUCUGUCCCUUCAACGGGCUGGGCUGGGUAUGUGCCUACCGAUGACAAUGUGUAAAUAAAUGCGUGUUCACACCCAC", "RBNS enrichment (R)": 0.752}
{"Oligonucleotide": "ACCACACAUCACUGCCUGAACUCCUUUGGCAGAAGAACCCCACCAGACAUUGAGACAUUGUAUUUUGCCUUAGCAGGGAUGAGUUGGUCUCUCCUGGCUGGGCCAUCCCA", "RBNS enrichment (R)": 0.673}
{"Oligonucleotide": "CUGGGCGAGUCACAGAGUUUGCUCUUAAGUAGCAAGAGACCAAACUCACCUUGGGUGUAGGGGUCAGUAGCAGCCACUCGCCCUUGCUCCAGUCCUUUGGGAGCCUGUCA", "RBNS enrichment (R)": 0.318}
{"Oligonucleotide": "CUAAGUCUUGAACCAACUGACUCCCGAAUGCCAUUCCCGGAAGGAACCAAGUGGUGACUUUGUCCUCUGCCUGCUCAGUCACAAAGUAUAUCACUAGGCCAUAAAAAUGG", "RBNS enrichment (R)": 0.259}
{"Oligonucleotide": "GAUCAGGCUGUUGCCAUGGAAGUUCAGGGCCAUAGACUGCCCCACUUAAACUCUUGUCAGUCUGGGCUCAGGGUUCCCAGAGCUCAUUCCCCAGGAAUCUCUAAGACCAG", "RBNS enrichment (R)": 0.19}
{"Oligonucleotide": "CAUGCUCACUCCCCCACUUCUCACCUGCCAACAUCCUGGCCUCUGGCCGUGGCACUGGUGCCAGUACUUUGAAAGAUGGGGUGCAGCCUACACACUUACCUGUCUCAGAC", "RBNS enrichment (R)": 0.352}
{"data": "Study 2", "target": "Hepatocyte nuclear factor 3-alpha (Foxa1, Mus musculus, UniProt P35582, residues 1-468, full length assumed)", "technique": "EMSA with sequencing", "molecule type": "double-stranded DNA, one strand shown", "matrix": "in vitro", "tested at": "10 and 20 nM", "notes": "whole designed probe, mean of two concentrations, ends assumed", "baseline": "negative control set to 0", "direction": "higher = stronger binding", "shared flanks, not repeated": "GTGAGCGGTGCCCATTGATGGGGAAC … TTTCACTGGGATCGTGGGGAC", "Residues (chain)": "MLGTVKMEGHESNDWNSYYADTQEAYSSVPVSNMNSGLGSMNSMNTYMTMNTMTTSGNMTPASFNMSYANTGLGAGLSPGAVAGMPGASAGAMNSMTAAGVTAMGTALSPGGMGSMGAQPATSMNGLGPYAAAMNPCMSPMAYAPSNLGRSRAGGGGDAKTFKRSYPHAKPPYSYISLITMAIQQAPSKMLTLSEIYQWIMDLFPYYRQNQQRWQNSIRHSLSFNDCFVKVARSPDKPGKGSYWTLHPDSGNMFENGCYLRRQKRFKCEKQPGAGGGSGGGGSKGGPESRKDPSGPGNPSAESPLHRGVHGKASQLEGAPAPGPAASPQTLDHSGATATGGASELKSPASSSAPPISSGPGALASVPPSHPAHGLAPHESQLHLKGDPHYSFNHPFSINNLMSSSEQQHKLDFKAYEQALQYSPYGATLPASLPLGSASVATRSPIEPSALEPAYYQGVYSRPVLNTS"}
{"Oligonucleotide": "ATCTTCCCCCTCTTCCTTGCCCCACCAGCTCACCTTCCCGGGTCAAAGTAAACAAGTGTTTACTTTGAAGCCGGCATTCGTTAACCCTCTTCACGCGCATACTGCACATTGGTCTGGATCTAACATGGTCCTTTGGCGACGCCAGGCTCCGGGAGAGCAAAGCACCGTGTCAGGGCCATGATCCGGGGTGGCC", "normalised bound fraction [ratio]": 0.441}
{"Oligonucleotide": "ATCTTCCCCCTCTTCCTTGCCCCACCAGCTCACCTACGGGGGTTATTTGCACAAAGGAAAATAAATAAAGCCGGCATTCGTTAACGCAGTTCTGGCGCAAACTGCTGTTTGCTCTGGATCTAACATGGTCCTTTGGCGACGCCAGGCTCCGGGAGAGCAAAGCACCGTGTCAGGGCCATGATCCGGGGTGGCC", "normalised bound fraction [ratio]": 0.384}
{"Oligonucleotide": "GCGGGCGCGTCGTCGGCGAACTTCCTGGTCCTCTGCATCCGCCCCCGTGACGCACGCGGGCCGCCGGGGACTGGCCGCCCGCGTGCCCGCACTGTTGACTTTGCCATCCTCGGAGATGGGCGGGCCCTGTTTTTGTAGGGTCGGCGCTGTTGAATCAGAAGCAGGCAGGGGCGGAGGTGGCTGGGGAGGCACC", "normalised bound fraction [ratio]": 0.235}
{"Oligonucleotide": "ATCTTCCCCCTCTTCCTTGCCCCACCAGCTCACCTTCCCGGGTTGTTTACTTTGAGCAAAGTAAACAAAGCCGGCATTCGTTAACCCTCTTCTGGCGCAAACTGCTGTTTGCTCTGGATCTAACATGGTCCTTTGGCGACGCCAGGCTCCGGGAGAGCAAAGCACCGTGTCAGGGCCATGATCCGGGGTGGCC", "normalised bound fraction [ratio]": 0.529}
{"Oligonucleotide": "CCAAAGTAGGAAAAATATTAAAACAACATTTTTAGGAACTGATAAAATATCTGATTAATATTTATTGACAATATAAATTAAAAACTCTGTTATTTGTTTACATTGGTTTCTCTGTTTCAGACTCTGGTTAGTTCCTCGTGCATATGGCAGCCAGGCAAAAATTCCCAAACCATCATATTTATCATCTTCACTT", "normalised bound fraction [ratio]": 0.48}
{"data": "Study 3", "target": "Interferon regulatory factor 5, full length, phosphomimetic (IRF5, Homo sapiens, UniProt Q13568-2, residues 1-514, K96S/S451D/S453D/S456D/S462D)", "technique": "protein-binding microarray", "molecule type": "double-stranded DNA, one strand shown", "matrix": "in vitro", "tested at": "250 nM", "notes": "60-bp whole probe", "added": "salmon DNA 0.4 mg/ml", "baseline": "random background probes", "direction": "higher = stronger binding", "shared flanks, not repeated": "GCCTAGCAC … GTCTTGATTCGCTTGACGCTGCTG"}
{"Oligonucleotide": "TTAGGTACCGACACTGGGTTAGTGCTA", "log fluorescence": "-0.0381 z-score"}
{"Oligonucleotide": "TTAGATATCGGGTTTCGATAAGTGCTA", "log fluorescence": "7.18 z-score"}
{"Oligonucleotide": "GACGGTATCGGTTTCAGGACGTGCTAG", "log fluorescence": "7.29 z-score"}
{"Oligonucleotide": "GACCATCTCAGTCTCGAGACGTGCTAG", "log fluorescence": "-0.0367 z-score"}
{"Oligonucleotide": "ATTTGTAAGTACATTAACTCGTGCTAG", "log fluorescence": "0.328 z-score"}
{"Oligonucleotide": "AACGATTTCAGTTCCGAGACGTGCTAG", "log fluorescence": "1.53 z-score"}
{"Oligonucleotide": "GACGGTTTCGGGTATAGGGACGTGCTA", "log fluorescence": "7.47 z-score"}
{"Oligonucleotide": "ATCTCACTCTGTCCCTCTGTGTGCTAG", "log fluorescence": "0.284 z-score"}
{"Oligonucleotide": "TTAGGACTGCTGCTGCTTTAGTGCTAG", "log fluorescence": "-0.423 z-score"}
{"Oligonucleotide": "GAAGATTTCAGTTCCGAGACGTGCTAG", "log fluorescence": "1.15 z-score"}
{"Oligonucleotide": "GAAGGACTGGGTATCGGGACGTGCTAG", "log fluorescence": "0.653 z-score"}
{"Oligonucleotide": "CTACTTCTCTTTTTGCTTTCGTGCTAG", "log fluorescence": "3.14 z-score"}
{"Oligonucleotide": "TTCTCTTTCATTGCTGCCCTGTGCTAG", "log fluorescence": "2.96 z-score"}
{"Oligonucleotide": "TTAGGTATCCTGATCCTTTAGTGCTAG", "log fluorescence": "-0.295 z-score"}
{"Oligonucleotide": "GATTCTCCTGCCTCAGCCTCGTGCTAG", "log fluorescence": "-0.213 z-score"}
{"Oligonucleotide": "GACGGTAGCGGTATCGGGACGTGCTAG", "log fluorescence": "0.692 z-score"}
{"Oligonucleotide": "TCAGCTTTCATTTATTTACTGTGCTAG", "log fluorescence": "3.37 z-score"}
{"Oligonucleotide": "TCAGTATTTTTTCTGAAACTGTGCTAG", "log fluorescence": "1.07 z-score"}
{"Oligonucleotide": "TCACACCAGAGGGCGCTGTGGTGCTAG", "log fluorescence": "-0.584 z-score"}
{"data": "Study 4", "target": "Prothrombin, mature alpha-thrombin (F2, Homo sapiens, UniProt P00734)", "technique": "aptamer microarray, sandwich", "molecule type": "DNA with 2'F-ANA", "matrix": "in vitro", "tested at": "200 nM", "notes": "whole 15-mer aptamer, many near background", "added": "Cy3 exosite-II aptamer, 400 nM", "direction": "higher = stronger binding", "oligonucleotide": "GGTTGGTGTGGTTGG"}
{"Modification": "2'F-ANA at 1 2 3 4 6 8 10 11 13 14", "mean fluorescence intensity [a.u.]": 51.2}
{"Modification": "2'F-ANA at 1 2 5 7 8 9 10 11 13 15", "mean fluorescence intensity [a.u.]": 53.5}
{"Modification": "2'F-ANA at 7 8 10 12 13 14 15", "mean fluorescence intensity [a.u.]": 131}
{"Modification": "2'F-ANA at 2 3 8 9 10 11 12 13 14 15", "mean fluorescence intensity [a.u.]": 285}
{"Modification": "2'F-ANA at 2 5 6 7 9 12 15", "mean fluorescence intensity [a.u.]": 133}
{"Modification": "2'F-ANA at 7 8 10 12", "mean fluorescence intensity [a.u.]": 279}
{"Modification": "2'F-ANA at 3 5 6 7 9 10 11 14 15", "mean fluorescence intensity [a.u.]": 53.2}
{"Modification": "2'F-ANA at 3 4 6 7 10 12 14", "mean fluorescence intensity [a.u.]": 196}
{"Modification": "2'F-ANA at 1 6 10", "mean fluorescence intensity [a.u.]": 53.7}
{"Modification": "2'F-ANA at 3 4 7 8 12 14", "mean fluorescence intensity [a.u.]": 526}
{"Modification": "2'F-ANA at 2 3 5 6 7 9 10 11 13 15", "mean fluorescence intensity [a.u.]": 52.7}
{"Modification": "2'F-ANA at 2 7 8 9 10 11 12 15", "mean fluorescence intensity [a.u.]": 155}
{"Modification": "2'F-ANA at 3 5 6 7 8 9 11", "mean fluorescence intensity [a.u.]": 101}
{"Modification": "2'F-ANA at 1 2 5 7 8 13 15", "mean fluorescence intensity [a.u.]": 54.4}
{"Modification": "2'F-ANA at 1 2 3 5 6 7 8 12 13", "mean fluorescence intensity [a.u.]": 110}
{"Modification": "2'F-ANA at 8 10 12 14 15", "mean fluorescence intensity [a.u.]": 120}
{"Modification": "2'F-ANA at 3 5 6 9 10 13", "mean fluorescence intensity [a.u.]": 49.4}
{"Modification": "2'F-ANA at 1 3 4 5 6 7 12", "mean fluorescence intensity [a.u.]": 141}
{"Modification": "2'F-ANA at 1 2 3 7 8 10 11 13", "mean fluorescence intensity [a.u.]": 62.1}
{"Modification": "2'F-ANA at 1 3 4 8 9 10 11 15", "mean fluorescence intensity [a.u.]": 60.1}
{"Modification": "2'F-ANA at 2 5 10 11", "mean fluorescence intensity [a.u.]": 101}
{"Modification": "2'F-ANA at 2 4 5 6 8 11", "mean fluorescence intensity [a.u.]": 69.6}
{"Modification": "2'F-ANA at 1 3 5 7 11 12 13 14 15", "mean fluorescence intensity [a.u.]": 50.7}
{"Modification": "2'F-ANA at 1 2 3 7 8 9 10 11 14 15", "mean fluorescence intensity [a.u.]": 55.2}
{"note": "Repeated from above (study 3):"}
{"Oligonucleotide": "ATCTCACTCTGTCCCTCTGTGTGCTAG", "log fluorescence": "0.284 z-score"}
{"Oligonucleotide": "TTAGGACTGCTGCTGCTTTAGTGCTAG", "log fluorescence": "-0.423 z-score"}
{"Oligonucleotide": "GAAGATTTCAGTTCCGAGACGTGCTAG", "log fluorescence": "1.15 z-score"}
{"Oligonucleotide": "GAAGGACTGGGTATCGGGACGTGCTAG", "log fluorescence": "0.653 z-score"}
{"Oligonucleotide": "CTACTTCTCTTTTTGCTTTCGTGCTAG", "log fluorescence": "3.14 z-score"}
{"Oligonucleotide": "TTCTCTTTCATTGCTGCCCTGTGCTAG", "log fluorescence": "2.96 z-score"}
{"Oligonucleotide": "TTAGGTATCCTGATCCTTTAGTGCTAG", "log fluorescence": "-0.295 z-score"}
{"Oligonucleotide": "GATTCTCCTGCCTCAGCCTCGTGCTAG", "log fluorescence": "-0.213 z-score"}
{"Oligonucleotide": "GACGGTAGCGGTATCGGGACGTGCTAG", "log fluorescence": "0.692 z-score"}
